Measurements pooled from the literature.
Parts stem from different laboratories: compare values within a part only.

Series 1
Target: Interferon regulatory factor 5, full length, phosphomimetic (IRF5, Homo sapiens, UniProt Q13568-2, residues 1-514, S451D/S453D/S456D/S462D)
Method: protein-binding microarray
Form: double-stranded DNA, one strand shown
Matrix: in vitro
Concentration: 940 nM top
Notes: 60-bp whole probe
Together with: salmon DNA 0.4 mg/ml
Relative to: random background probes
Direction: higher = stronger binding
Constant ends, left off below: GCCTAGCAC … GTCTTGATTCGCTTGACGCTGCTG
Sequence	fitted relative affinity [z-score]
TTAGGTTTCGGTAACGGTTAGTGCTAG	12.7
GACGAACCGAGTCTCGAGACGTGCTAG	0.538
TTAGATATCAGTTTCGACTAGTGCTAG	4.73
GATGGACTGCTTCTCCTGACGTGCTAG	-0.000212
AACCGCCTCTCCCTTAGACGGTGCTAG	0.5
TCAGCTACCTCTCTTAGACTGTGCTAG	0.0929
GACGGTTTCGACTATCTGGACGTGCTA	7.78
TTAGGACTGCATATCCTTTAGTGCTAG	-0.862

Series 2
Target: RING finger protein unkempt homolog, zinc fingers 1-6, GST-SBP tag (UNK, Homo sapiens, UniProt Q9C0B0, residues 30-357)
Method: RNA Bind-n-Seq
Form: RNA
Matrix: in vitro
Concentration: not given
Notes: RNA with constant flanks, human-mouse chimeric sites, ends assumed
Relative to: input RNA pool
Direction: higher = stronger binding
Construct (chain): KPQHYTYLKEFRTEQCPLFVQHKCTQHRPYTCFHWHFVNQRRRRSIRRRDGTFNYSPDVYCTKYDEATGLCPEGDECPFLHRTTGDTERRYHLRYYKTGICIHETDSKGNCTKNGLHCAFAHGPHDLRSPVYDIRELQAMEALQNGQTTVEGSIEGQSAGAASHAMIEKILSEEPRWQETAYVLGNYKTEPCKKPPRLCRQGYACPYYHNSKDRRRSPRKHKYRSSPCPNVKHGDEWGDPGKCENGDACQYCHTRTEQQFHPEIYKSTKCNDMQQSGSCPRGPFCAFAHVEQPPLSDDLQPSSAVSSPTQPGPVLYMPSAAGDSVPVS
Sequence	bound/input enrichment [ratio]
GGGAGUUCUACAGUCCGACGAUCUUACCCGAGAACGAGGAUGAGCUGGAGAGCACCAACAGGCGCUACACCAAGAGGGACUGCAGCACUUUCCUCAGAACUAGCGAGACGGGCAUCGUGGACCAGGUCAUGGUCACUCUCAACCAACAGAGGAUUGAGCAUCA	0.119
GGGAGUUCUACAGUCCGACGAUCCACACACUCUUCUGCGGGACCCUCAUCUUGCAGGCCCGGGCCUAUGUGGGACCGCACGUCCUGGCAGUGGUGACUCGCACAGGGUUCUGCACAGCCAAAGGGGGCCUGGUGAGCUCCAUCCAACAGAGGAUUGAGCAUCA	0.0948
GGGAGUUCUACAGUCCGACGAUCAAAGAGAAACUAAAGCAACUAAUAGAGAAGAGGAUUGGCAAAGAGAAUUUCAUAGAGGAAACUAGGAUUAUUAGCAAACAUGAGUUAGUAUUCCAGACGUCUCAGAAACCCCAGCCAAACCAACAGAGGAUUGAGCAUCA	1.64
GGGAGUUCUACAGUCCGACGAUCACUCAGAGAUCCACCUCCCAAAGUGCUGGGAGUAAAGGUGUGGCCACUCAAUUCUCCUUGAUGGAUAUUUUAUAAAGUUAAUAUGAAUCUUCCUGUUCGUCCAGGGAAGAAAGAUUUGUUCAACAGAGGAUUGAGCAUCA	0.417
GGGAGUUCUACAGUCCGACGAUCUUAUCCAAGACUCAACGAAAGACUCCAACGGUUAUUCAUAAACAUUAUCAAAUUCAUCGGAUUCGACAUUUUUACAUGAGAAAAGUCAAAUUUACUCAACAGAAUUACCAUGAUAGACUGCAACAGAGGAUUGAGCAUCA	0.299
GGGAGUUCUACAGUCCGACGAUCAAAGUGGACUAUGGCGAGUACAUGGAUAAAAACAAUGUGAGGCGACAAGCAACAACAAUCAUAGCUGAUAACAUUAUAUUUCUGAGUGACCAGACAAAAGAAAAGGCGUAGAAAGGAUGACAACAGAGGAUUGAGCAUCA	1.88

Series 3
Target: Centromere-binding protein 1, full length, His-tagged (CBF1, Saccharomyces cerevisiae, UniProt P17106, residues 1-351)
UniProt P17106, sequence (whole entry, looked up): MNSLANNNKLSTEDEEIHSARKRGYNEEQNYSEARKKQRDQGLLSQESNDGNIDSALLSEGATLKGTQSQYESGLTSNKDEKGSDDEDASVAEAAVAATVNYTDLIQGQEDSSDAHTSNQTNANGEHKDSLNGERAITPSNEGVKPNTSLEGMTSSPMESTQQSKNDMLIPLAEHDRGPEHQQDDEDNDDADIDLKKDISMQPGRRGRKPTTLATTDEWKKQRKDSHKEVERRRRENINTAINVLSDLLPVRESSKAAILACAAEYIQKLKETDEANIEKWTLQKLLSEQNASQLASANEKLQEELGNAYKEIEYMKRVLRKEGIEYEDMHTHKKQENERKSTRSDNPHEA
Method: competition protein-binding microarray
Form: double-stranded DNA, one strand shown
Matrix: in vitro
Concentration: 2 µM
Notes: whole 60-bp probe, lowest competitor level
Together with: Pho4 competitor, 0.05 µM
Direction: higher = stronger binding
Sequence	fluorescence intensity [a.u.]
TGCGCAACAACTTGGCATGTGGGTGTATGTCTAGAAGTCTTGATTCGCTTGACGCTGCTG	82.5
AATCAGCTTATTCAGCTCGTGGAAGGTTGTCCAGTCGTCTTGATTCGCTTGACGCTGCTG	70.1
GAACCAAGACCGTCAAGCGTGCTTTTAAGGCTTTGAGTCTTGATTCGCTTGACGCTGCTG	81.4
TGGATTTCAACGGGAAACGTGACTCGTACAGAATTTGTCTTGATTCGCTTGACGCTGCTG	949
GTCAACAACAACAACCTCGTGACAAATAGTTTGTAAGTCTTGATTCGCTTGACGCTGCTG	789
TAACCCAGTTGTAACCAGATGGAGTCATTCTACCGGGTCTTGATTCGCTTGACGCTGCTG	61.7
CTTCTGTAAATTTGGAGTGTGGGTGGACGCGCCCCGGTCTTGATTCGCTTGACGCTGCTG	76.5

Other studies, line by line
Substance	target	assay	system	conditions	how to read	measurement	value
PhoQ, residues 284 288 289 292 302 303 TYGVAM	PhoP, residues 12 14 15 18 19 NFCKL (Escherichia coli, UniProt P23836)	Sort-seq, measured: YFP reporter	E. coli	PhoQ-PhoP variant library, together with: 10 µM Mg2+	relative to: high Mg2+ state, higher = stronger signaling	fold induction	20.4

Some of these lines once more (series 3):
Sequence	fluorescence intensity [a.u.]
TAACCCAGTTGTAACCAGATGGAGTCATTCTACCGGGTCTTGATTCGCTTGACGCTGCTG	61.7
CTTCTGTAAATTTGGAGTGTGGGTGGACGCGCCCCGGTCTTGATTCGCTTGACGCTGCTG	76.5
